Measured values of several laboratories.
Each line is one published result; not all experiments were run side by side. Values joined by “and” are separate records of one study, mostly repeats; a detail may differ. ± marks the error that the study gave.

| Compound | test | system | conditions | how to read | measurement | value |
| --- | --- | --- | --- | --- | --- | --- |
| CC[C@H](C)CCCCC(=O)N[C@@H](CCN)C(=O)N[C@H](C(=O)N[C@@H](CCN)C(=O)N[C@H]1CCNC(=O)[C@H]([C@@H](C)O)NC(=O)[C@H](CCN)NC(=O)[C@H](CCN)NC(=O)[C@H](CC(C)C)NC(=O)[C@@H](Cc2ccccc2)NC(=O)[C@H](CCN)NC1=O)[C@@H](C)O |  | human, serum | intravenous infusion, 2 mg/kg every 12 h |  | elimination rate constant | 0.226 h⁻¹ |
| CC(C)C[C@H](NC(=O)[C@H](CCC(=O)O)NC(=O)[C@@H](NC(=O)[C@H](CC(C)C)NC(=O)[C@@H](NC(=O)[C@H](CCCCN)NC(=O)[C@@H](NC(=O)[C@H](CC(C)C)NC(=O)[C@H](CCC(=O)O)NC(=O)[C@H](CCCCN)NC(=O)[C@H](CC(C)C)NC(=O)[C@@H](NC(=O)[C@H](CCC(=O)O)NC(=O)[C@@H](NC(=O)[C@H](CC(C)C)NC(=O)[C@@H](NC(=O)[C@H](CCCCN)NC(=O)[C@H](CC(C)C)NC(=O)c1ccc2c(c1)C(=O)OC21c2ccc(O)cc2Oc2cc(O)ccc21)[C@@H](C)O)[C@@H](C)O)[C@@H](C)O)[C@@H](C)O)[C@@H](C)O)[C@@H](C)O)C(=O)O | no effect | Sprague-Dawley rat, excised skin | 50 µmol/L, 37 °C, FAM-labelled CPP conjugate | reference: free FAM | apparent skin permeability | no effect |
| [123I]c1cncc(OC[C@@H]2CCN2)c1 | SPECT | human, temporal lobe | intravenous bolus, 9.3 mCi | reference: plasma | tissue/plasma ratio | 8.39 |
| CCCCCOc1ccc(-c2cc(-c3ccc(C(=O)N[C@H]4C[C@@H](O)[C@@H](O)NC(=O)[C@@H]5[C@@H](O)[C@@H](C)CN5C(=O)[C@H]([C@H](O)CC(N)=O)NC(=O)[C@H]([C@H](O)[C@@H](O)c5ccc(O)c(OS(=O)(=O)O)c5)NC(=O)[C@@H]5C[C@@H](O)CN5C(=O)[C@H]([C@@H](C)O)NC4=O)cc3)no2)cc1 |  | human children aged 6-11 years, plasma | intravenous, 3 mg/kg once daily, day 7, mean |  | clearance at steady state | 0.205 mL/min/kg |
| COc1ccc(C[C@@H]2NC(=O)[C@H]([C@@H](C)O)NC(=O)[C@@H]3[C@@H]4CCN3C(=O)[C@@H]3Cc5cn(c6ccc(F)cc56)CCCCCCN(Cc5ccc(cc5)CCNC(=O)[C@]5(C)CCCN5C2=O)C(=O)CCC(=O)N[C@@H](C)C(=O)N[C@H](CNC(=O)CCCCC[N+](C)(C)C)C(=O)N[C@@H](Cc2cccc(c2)CNC(=O)CO4)C(=O)N3)cc1 |  | fasted healthy humans, plasma | oral, 200 mg single dose, with 1800 mg Labrasol, geometric mean |  | Vz/F | 14200 L |
| CCCCCCCCCC[N+](C)(C)Cc1ccccc1 | ultrafiltration | human serum |  |  | unbound fraction in blood | 0.05 |
| CN[C@@](C)(C[18F])C(=O)O |  | mouse, blood | 1 h, tumour-bearing |  | tracer uptake | 1.1 %ID/g |
| NCCc1c[nH]c2ccc(O)cc12 |  | human liver mitochondrial preparation | 1 µM, 30 min, 0.5 mg/mL protein |  | percent metabolized | 87% |
| CC(=O)N[C@H](CCCCNC(=O)C(C)F)C(=O)N[C@@H](CS)C(=O)N[C@@H](CS)C(=O)N[C@@H](CCC(=O)O)C(=O)N[C@@H](Cc1c[nH]cn1)C(=O)N[C@H](Cc1ccccc1)C(=O)N[C@@H](CCCNC(=N)N)C(=O)N[C@@H](Cc1c[nH]c2ccccc12)C(=O)N[C@@H](CS)C(=O)N[C@@H](CCCNC(=N)N)C(=O)N1CCC[C@H]1C(=O)N[C@H](C(N)=O)C(C)C (stereo partly drawn) [fluorine-18 labelled] |  | C57BL/6 mice, male, B16-F10 tumour, tumor | intravenous, 1 h |  | tissue uptake | 1.8 ± 0.18 %ID/g |
| O=C(/C=C/c1cc(F)cc(F)c1)c1ccc[nH]1 |  | zebrafish embryo (wild type) | up to 72 hpf, exposed from 5 hpf |  | LC50 | 12.1 µM |
| CC(=O)N[C@H](CCCCN)C(=O)N[C@H](CC(C)C)C(=O)N[C@@H](CN)C(=O)N[C@H](CO)C(=O)N[C@H](CC(C)C)C(=O)N[C@H](CC(C)C)C(=O)N[C@@H](CN)C(=O)N[C@@H](C(=O)N[C@H](CC(C)C)C(=O)N[C@H](CO)C(=O)N[C@@H](CN)C(=O)N[C@H](C)C(=O)N[C@H](C)C(=O)N[C@H](C)C(=O)N[C@H](C)C(=O)N[C@H](C)C(=O)N[C@H](CC(C)C)C(=O)N[C@@H](CN)C(=O)N[C@@H](C(=O)N[C@H](CC(C)C)C(=O)N[C@H](CC(C)C)C(=O)N[C@@H](CN)C(=O)N[C@H](C)C(=O)N[C@H](CC(C)C)C(=O)N[C@H](CO)C(=O)N[C@@H](CN)C(N)=O)[C@H](C)O)[C@H](C)O | RP-HPLC temperature profiling |  | pH 2 | reference: random coil control | self-association parameter | 18 min |
| C[C@H]1N=C(c2ccccc2F)c2cc(Br)ccc2-n2cnc(C(=O)O)c21 |  | Swiss Webster mice, lung | oral, 25 mg/kg, 60 min, PEG400 2.5%, HPMC 98% |  | concentration | 287 nM |
| CC(=O)N[C@@H](Cc1c[nH]c2ccccc12)C(=O)N[C@H](C(=O)N[C@@H](Cc1c[nH]c2ccccc12)C(=O)N[C@@H](CC(N)=O)C(=O)N1CCC[C@H]1C(=O)N[C@@H](C)C(=O)N[C@H](C(=O)NCC(=O)N[C@@H](CCCCN)C(=O)N[C@@H](Cc1c[nH]c2ccccc12)C(=O)N[C@H](C(=O)N[C@@H](Cc1c[nH]c2ccccc12)C(N)=O)C(C)C)[C@@H](C)O)C(C)C | circular dichroism | phosphate buffer | pH 6.5 |  | Tm | > 100 °C and 101 °C |
| CC[C@H](C)[C@H](NC(=O)[C@H](CC(C)C)NC(=O)[C@H](Cc1c[nH]c2ccccc12)NC(=O)[C@H](CCC(N)=O)NC(=O)[C@@H](NC(=O)[C@H](Cc1ccccc1)NC(=O)[C@H](C)NC(=O)[C@H](CCCCNC(=O)COCCOCCNC(=O)COCCOCCNC(=O)CC[C@H](NC(=O)CCCCCCCCCCCCCCCCCCC(=O)O)C(=O)O)NC(=O)[C@H](CCC(N)=O)NC(=O)[C@H](C)NC(=O)[C@@H](NC(=O)[C@H](CCCCN)NC(=O)[C@H](CC(=O)O)NC(=O)[C@H](CC(C)C)NC(=O)C(C)(C)NC(=O)[C@@H](NC(=O)[C@H](CO)NC(=O)[C@H](Cc1ccc(O)cc1)NC(=O)[C@H](CC(=O)O)NC(=O)[C@H](CO)NC(=O)[C@@H](NC(=O)[C@H](Cc1ccccc1)NC(=O)[C@@H](NC(=O)CNC(=O)[C@H](CCC(=O)O)NC(=O)C(C)(C)NC(=O)[C@@H](N)Cc1ccc(O)cc1)[C@@H](C)O)[C@@H](C)O)[C@@H](C)CC)[C@@H](C)CC)C(C)C)C(=O)N[C@@H](C)C(=O)NCC(=O)NCC(=O)N1CCC[C@H]1C(=O)N[C@@H](CO)C(=O)N[C@@H](CO)C(=O)NCC(=O)N[C@@H](C)C(=O)N1CCC[C@H]1C(=O)N1CCC[C@H]1C(=O)N1CCC[C@H]1C(=O)N[C@@H](CO)C(N)=O |  | human, moderate hepatic impairment | subcutaneous, 5 mg | reference: normal hepatic function | tmax difference | 0 h |
| COc1cc(Nc2ncc(F)c(Nc3ccc4c(n3)NC(=O)C(C)(C)O4)n2)cc(OC)c1OC |  | buffer with surfactant or BSA |  |  | solubility | ≥ 10 µM |
| C[C@@H]1COCCN1c1cc([C@]2(O)C[C@H]3CC[C@@H](C2)O3)c2cnn(-c3cc[nH]n3)c2n1 |  | NOD-SCID mouse, tumour-bearing | oral, 2 weeks, 3 days on, 4 off |  | MTD | 30 mg/kg |
| CCNc1nc(Cl)nc(NCC)n1 | LC-MS/MS | herbicide solution | 2 h, 40 °C, with: 254 nm UV exposure |  | remaining amount | 64.7 ± 11.2% |
| O=c1[nH]c(Cc2ccccn2)nc2c1cnn2C1CCOCC1 |  | healthy men, extensive metabolizers, plasma | oral, 50 mg single dose, tablet, geometric mean |  | half-life | 1.39 h |
| c1cc([C@H]2CC[C@]3(CC2)OO[C@]2(O3)C3CC4CC(C3)CC2C4)ccc1OCCN1CCOCC1 |  | human, plasma | oral, 800 mg, single dose, fed |  | Cmax | 2220 ng/mL |
| O[C@H]1CCCN[C@@H]1CCCn1cnc2c(Cl)c(Cl)ccc21 |  | human, plasma | oral, 100 mg single dose, solution, geometric mean |  | Vz/F | 1890 L |
| Cc1c(P(=S)(c2ccccc2)c2ccccc2)n2ccccc2[n+]1C/C=C/c1ccccc1 |  | mouse, brain | intraperitoneal, 10 mg/kg, 2 h |  | concentration | 27 ng/g |
| CCCCCOc1ccc(-c2ccc(-c3ccc(C(=O)N[C@H]4C[C@@H](O)[C@@H](OCC[N+](C)(C)C)NC(=O)[C@@H]5[C@@H](O)[C@@H](C)CN5C(=O)[C@H]([C@@H](C)O)NC(=O)[C@H]([C@H](O)[C@@H](O)c5ccc(O)cc5)NC(=O)[C@@H]5C[C@@H](O)CN5C(=O)[C@H]([C@@H](C)O)NC4=O)cc3)cc2)cc1 |  | healthy adult humans, plasma | subcutaneous, 10 mg, single dose, geometric mean |  | Vz/F | 68.5 L |
| c1cc2ccc3cccc4ccc(c1)c2c34 | HPLC-fluorescence | Wistar rat, male, stomach | oral, 4 mg/kg, 24 h |  | tissue concentration | 22.9 ± 5.2 ng/g |
| CCCCCOc1ccc(-c2ccc(-c3ccc(C(=O)N[C@H]4C[C@@H](O)[C@@H](O)NC(=O)[C@@H]5[C@@H](O)[C@@H](C)CN5C(=O)[C@H]([C@@H](C)O)NC(=O)[C@H]([C@H](O)[C@@H](O)c5ccc(O)cc5)NC(=O)[C@@H]5C[C@@H](O)CN5C(=O)[C@H]([C@@H](C)O)NC4=O)cc3)cc2)cc1 | population PK model | human patients | intravenous, typical patient of sample D kg |  | clearance | 19.3 mL/min |

Some of these lines once more:
| Compound | test | system | conditions | how to read | measurement | value |
| --- | --- | --- | --- | --- | --- | --- |
| COc1cc(Nc2ncc(F)c(Nc3ccc4c(n3)NC(=O)C(C)(C)O4)n2)cc(OC)c1OC |  | buffer with surfactant or BSA |  |  | solubility | ≥ 10 µM |
| C[C@@H]1COCCN1c1cc([C@]2(O)C[C@H]3CC[C@@H](C2)O3)c2cnn(-c3cc[nH]n3)c2n1 |  | NOD-SCID mouse, tumour-bearing | oral, 2 weeks, 3 days on, 4 off |  | MTD | 30 mg/kg |
| CCNc1nc(Cl)nc(NCC)n1 | LC-MS/MS | herbicide solution | 2 h, 40 °C, with: 254 nm UV exposure |  | remaining amount | 64.7 ± 11.2% |
